# Literature values as cited in several papers.
# Protocols differ between the studies behind these lines. ± marks the error that the study gave.
SMILES,target or system,assay,test system,setting,scale,measurement,value
O=c1oc2ccccc2cc1-c1cc(-c2ccc(Cl)cc2)nc(Cc2ccc(F)cc2)n1,MDA-MB-231,,,,,IC50,16.5 µM
COc1cc(-c2nc(SCc3cn(CC(=O)NC(=O)Nc4ccccn4)nn3)nc(Nc3ccc(C)cc3)c2C#N)cc(OC)c1OC,B16-F10,,,,,IC50,0.032 µM
c1ccc2c(c1)CCNC2c1c[nH]c2cnccc12 (stereo not shown),COLO 205,cytotoxicity,,,,IC50,> 100 µM
Nc1nc2[nH]c(CCCc3ccc(C(=O)N[C@@H](CCC(=O)O)C(=O)O)cc3)cc2c(=O)[nH]1,CHO PC43-10 (human RFC),cell growth,,,,IC50,0.649 µM
CCCN1C(=O)/C(=C\c2cccc(OC)c2)S/C1=N/c1ccccc1,HCT-116,,,,,IC50,34.2 µM
CNCCN(C)Cc1ccc(-c2ccc(C(F)(F)F)cc2)o1,HepG2,cell viability,,,,IC50,34.5 µM
NC(=O)c1cn([C@H]2O[C@@H](CO)[C@H](O)[C@@H]2O)c2ccc(Nc3ccccc3)cc2c1=O,K562,,,,,IC50,64.1 µM
C/C=C/Cn1cc(-c2ccc(C(=O)N3CCNCC3)c(Cl)c2)n2cncc2c1=O,EOL-1,cell growth,,,,IC50,1.76 µM
COc1ccc(Nc2nc(Nc3ccc(OCC[18F])cc3)ncc2Br)cc1,,,S180 tumour-bearing mice,"intravenous, 5 min",reference: tumour over muscle,tumour to tissue ratio,2.46
Nc1nc2[nH]c(CCCCc3ccc(C(=O)N[C@@H](CCC(=O)O)C(=O)O)s3)cc2c(=O)[nH]1,CHO RT16 (human FRα),cell growth,,no added folic acid,,IC50,0.0018 µM
c1ccc2c(c1)CCCNC2c1c[nH]c2ncccc12 (stereo not shown),MRC-5 fibroblasts,cytotoxicity,,,,IC50,> 100 µM
Nc1nc2[nH]c(CCCCCCCCC(=O)N[C@@H](CCC(=O)O)C(=O)O)cc2c(=O)[nH]1,CHO PC43-10 (human RFC),cell growth,,,,IC50,> 1 µM
O=C(O)c1ccc([C@H]2C[C@H]3[C@@H](N2)[C@H](c2cccc(Cl)c2F)[C@]2(C(=O)Nc4cc(Cl)ccc42)N3CC2CC2)cc1,SJSA-1 (TP53 wild type),cell growth,,,,IC50,0.471 µM
c1cnc2[nH]cc(C3NCCc4sccc43)c2c1 (stereo not shown),COLO 205,cytotoxicity,,,,IC50,> 100 µM
Cc1ccc(S(=O)(=O)Nc2nnc(-c3ccc(Cl)cc3)s2)cc1,WI-38,,,,,IC50,137 ± 6.66 µM
c1ccc2c3c([nH]c2c1)C(c1c[nH]c2ncccc12)NCC3 (stereo not shown),MRC-5 fibroblasts,cytotoxicity,,,,IC50,> 100 µM
O=C(Nc1cc(Cl)ccc1Cl)c1c[nH]c2ccc(Cl)cc2c1=O,ACP-03,,,,,IC50,5.18 µM
COc1cc2c(cc1OC)C(c1c[nH]c3ccccc13)NCC2 (stereo not shown),COLO 205,cytotoxicity,,,,IC50,47.4 µM
Nc1nc2[nH]c(CCCCCCCC(=O)N[C@@H](CCC(=O)O)C(=O)O)cc2c(=O)[nH]1,CHO RT16 (human FRα),cell growth,,no added folic acid,,IC50,0.0085 µM
c1ccc2c(c1)CCNC2c1c[nH]c2cccnc12 (stereo not shown),MRC-5 fibroblasts,cytotoxicity,,,,IC50,> 100 µM
Nc1nc2sc(CCCc3ccc(C(=O)N[C@@H](CCC(=O)O)C(=O)O)cc3)cc2c(=O)[nH]1,CHO RT16 (human FRα),cell growth,,no added folic acid,,IC50,0.013 µM
COc1ccc(-c2cc(-c3cc4ccccc4oc3=O)nc3nc(C)[nH]c(=O)c23)cc1,HCT-116,,,,,IC50,6.11 ± 0.82 µM
c1ccc2c(c1)CCNC2c1c[nH]c2ncccc12 (stereo not shown),COLO 205,cytotoxicity,,,,IC50,64.3 µM
c1ccc2c(Cc3c[nH]c4ccccc34)c[nH]c2c1,MCF7,cell growth,,,,IC50,5.5 µM
O=C(O)c1cn([C@H]2O[C@@H](CO)[C@H](O)[C@@H]2O)c2ccc(Oc3ccccc3)cc2c1=O,K562,,,,,IC50,198 µM
COc1ccc(-c2cc(-c3cc4ccccc4oc3=O)nc(Cc3ccc(F)cc3)n2)cc1,MDA-MB-231,,,,,IC50,2.23 µM
O=C1NC2CCCCC2NC1c1c[nH]c2ccccc12 (stereo not shown),MRC-5 fibroblasts,cytotoxicity,,,,IC50,> 100 µM
CC[C@H](C)/C=C/C=C/C=C/C(O)=C/C(=O)C(Cl)(Cl)Cl,breast angiosarcoma cells,cell proliferation,,,,IC50,< 1 µM

# For quick reference, copied from above:
SMILES,target or system,assay,test system,setting,scale,measurement,value
C/C=C/Cn1cc(-c2ccc(C(=O)N3CCNCC3)c(Cl)c2)n2cncc2c1=O,EOL-1,cell growth,,,,IC50,1.76 µM
COc1ccc(Nc2nc(Nc3ccc(OCC[18F])cc3)ncc2Br)cc1,,,S180 tumour-bearing mice,"intravenous, 5 min",reference: tumour over muscle,tumour to tissue ratio,2.46
Nc1nc2[nH]c(CCCCc3ccc(C(=O)N[C@@H](CCC(=O)O)C(=O)O)s3)cc2c(=O)[nH]1,CHO RT16 (human FRα),cell growth,,no added folic acid,,IC50,0.0018 µM
